Measured values gathered from unrelated publications.
Compare with care: the assays were run in different laboratories. Several values in a cell are separate wells, animals, samples, runs or records. Numbers after ± are the reported error.
ADRA2C: Alpha-2C adrenergic receptor (ADRA2C, Homo sapiens, UniProt P18825)
UCHL1: Ubiquitin carboxyl-terminal hydrolase isozyme L1 (UCHL1, Homo sapiens, UniProt P09936)
Voltage-dependent P/Q-type calcium channel subunit alpha-1A: Voltage-dependent P/Q-type calcium channel subunit alpha-1A (Homo sapiens, UniProt O00555)

Cc1ccc(C(=O)Nc2ccc3ccccc3c2)o1
peak current ratio Ip2/Ip1 (Otop1 (Mus musculus, UniProt Q80VM9); proton current, whole-cell patch clamp; cells expressing mouse Otop1; 5 µM, pH 6.0): 1.61 and 1.56 and 1.24 and 1.57 and 1.8 and 1.87

C=CC(=O)N1CCC(COCC(=O)N2CCN(c3nc(-c4cnc(N)nc4C(F)F)nc(N4CCOC[C@@H]4C)n3)CC2)CC1
remaining binding (STK25 (Homo sapiens, UniProt O00506); KINOMEscan; 1 µM): 100%

Cc1cc(Oc2ncccc2CN2CCN(c3ccc(F)cc3F)CC2)ccc1-c1c(C)c(=O)[nH]c(=O)n1C
selectivity ratio (ADRA2C; binding, radioligand binding; together with: [3H]rauwolscine; relative to: Ki alpha2B over Ki alpha2C): 5

CC[C@@H]1[C@H](F)C(=O)N[C@@H]1COc1nccc2cc(C(N)=O)c(OC)cc12
inhibition (LRRK2 (Homo sapiens, UniProt Q5S007); ATP-site probe binding, ActivX profiling; THP-1 cell lysate; 0.04 mM, Lys2 site): 1.9%

Cc1cc(F)c(NS(=O)(=O)c2cc(Cl)cc(Cl)c2O)cc1[N+](=O)[O-]
remaining activity (malate dehydrogenase; enzyme activity, inhibitor; 200 µM, pH 7.0, 1% DMSO, aggregation counter-screen): 78%

CCNC(=O)/C=C/c1cccc(Br)c1
remaining transport activity (SLC6A19 (Homo sapiens, UniProt Q695T7); inhibitor, L-[14C]leucine uptake; CHO-BC cells; 10 µM, 6 min, unit not given, together with: GPNA 3 mM, JPH203 3 µM; relative to: uninhibited cells): 0.124

CN(C1CCCCC1)S(=O)(=O)c1ccccc1NC(=O)CCl
labelling (UCHL1; covalent, intact protein LC-MS; 12.5 µM): 21.5%

Br.CCCCCCCCCn1c2c(c(=N)c3c1CCC3)CCCC2
inhibition (Trypanosoma cruzi; reporter translation, Renilla luciferase mRNA translation; cell-free extract; 40 µM; relative to: DMSO): 68.8%

Nc1nc2c(ncn2[C@@H]2O[C@H](COP(=O)(O)O)[C@@H](O)[C@H]2O)c(=O)[nH]1
reaction rate (GUK1 (Homo sapiens, UniProt Q16774, Y81A); enzyme activity, NADH-coupled; 62.5 µM): 1.78 s⁻¹ and 1.86 s⁻¹ and 1.38 s⁻¹

O=C(COP(=O)(O)O)[C@@H](O)[C@H](O)[C@H](O)COP(=O)(O)O
thermal stability ratio (ADH5 (Homo sapiens, UniProt P11766); thermal proteome profiling; HepG2 cell lysate; concentration not given, 57 over 37 °C, mean; relative to: compound over control): 0.577

N#CC(=Cc1cccc2ccccc12)C(=O)NC1CC1
labelling (UCHL1; covalent, intact protein LC-MS; 12.5 µM): 10.8%

OC[C@H]1OC(O)[C@H](O)[C@@H](O)[C@@H]1O (stereo partly drawn)
kcat (Hexokinase-3 (HK3, Homo sapiens, UniProt P52790, E254A/R267A); substrate inhibition; mutant E254A/R267A, partial substrate inhibition model, together with: ATP 20 mM): 60 ± 4 s⁻¹

CCC(=O)NS(=O)(=O)c1ccc(-c2c(-c3ccccc3)noc2C)cc1
activation (HNF4A (Homo sapiens, UniProt P41235); reporter gene, Gal4 hybrid reporter; 50 µM; relative to: vehicle): 0.38 fold

COc1ccc(NC(=O)C(C#N)=Cc2c(Cl)nc3ccccn23)cc1
labelling (UCHL1; covalent, intact protein LC-MS; 12.5 µM): 15%

[H]/N=C(/N)NCC(=O)O
normalised MST signal (SLC6A6 (Homo sapiens, UniProt P31641, G62A); binding, microscale thermophoresis; 7.81 µM, room temperature, together with: 50 nM labelled protein; higher = more binding): -0.0119

CN[C@H]1CC[C@@H](c2ccc(Cl)c(Cl)c2)c2ccccc21
inhibition (Voltage-dependent P/Q-type calcium channel subunit alpha-1A; ion current, antagonist; HEK293; 3 µM): 72%

[Cl][Fe]([Cl])[Cl]
BAEE hydrolysis (Serine protease 1 (PRSS1, Bos taurus, UniProt P00760); enzyme activity; concentration not given, pH 8.0, 25 °C, together with: benzoyl-arginine ethyl ester): no effect

CCOc1ccc(NC(=O)C(C#N)=Cc2ccc(-c3ccc(Cl)cc3)o2)cc1
labelling (UCHL1; covalent, intact protein LC-MS; 12.5 µM): 15.7%

Nc1ccc(C(=O)O)cc1
current density (BEST1, with wild-type BEST1 (Homo sapiens, UniProt O76090, R218H); ion current, whole-cell patch clamp; HEK293 co-expressing mutant and wild-type; concentration not given, voltage 20 mV): 5.33 pA/pF and 3.24 pA/pF and 5.85 pA/pF and 2.09 pA/pF and 7.31 pA/pF and 0.94 pA/pF and 1.55 pA/pF and 3.37 pA/pF

COc1ccc2c(c1)CC(C)CC2NS(=O)(=O)c1cccc(Cl)c1O (stereo not drawn)
remaining activity (malate dehydrogenase; enzyme activity, inhibitor; 200 µM, pH 7.0, 1% DMSO, aggregation counter-screen): 100%

NCCNC(=O)c1ccc(Cl)cn1
IC30 (Voltage-dependent P/Q-type calcium channel subunit alpha-1A; ion current, antagonist, automated patch clamp): > 30 µM

CC(Cl)C(=O)N1CCN(CC(F)(F)C(F)F)CC1 (stereo not drawn)
labelling (UCHL1; covalent, intact protein LC-MS; 12.5 µM): 12.8%

Cc1cc(NC(=O)C23CC4CC(C2)CC(n2cnc([N+](=O)[O-])n2)(C4)C3)no1
inhibition (Trypanosoma cruzi; reporter translation, Renilla luciferase mRNA translation; cell-free extract; 40 µM; relative to: DMSO): -6.8%

Cc1cc2c(NC(=O)c3cccc(C(=O)O)c3)cccc2nn1
selectivity ratio (Bromodomain-containing protein 4, BD1 (BRD4, Homo sapiens, UniProt O60885); binding, BROMOscan competition binding; relative to: Kd CBP over Kd BRD4 bromodomain 1): 0.03

O=C(CCl)N1CCN(C2CCCN(C3CCOCC3)C2=O)CC1 (stereo not drawn)
labelling (UCHL1; covalent, intact protein LC-MS; 12.5 µM): 5.73%

Oc1ccccc1-c1n[nH]cc1-c1ccnc2ccccc12
log2 fold change (Histidine protein kinase NIK1 (NIK1, Candida albicans, UniProt Q5A599); kinase binding, MIB/MS competition; Candida albicans lysate; 10 µM; relative to: DMSO, negative = stronger binding): -0.17

O=C1Nc2c(ccc(Cl)c2Cl)C1=NO
Hill coefficient (KCNN4/CALM1 (Homo sapiens, UniProt O15554+P0DP23, R287A); ion current, activator, whole-cell patch clamp; R287A mutant): 1.5

COc1ccccc1-c1n[nH]c2nc(N[C@H]3CC[C@H](NS(=O)(=O)CCCOCCOCCNC(=O)OC(C)(C)C)CC3)ncc12
log2 SILAC ratio heavy/light (Leishmania donovani MPK (LinJ.36.0780/LinJ.11.0060); resin binding competition; promastigote lysate; 10 µM; relative to: DMSO): 1.71

CC(=O)O[C@H]1C(=O)[C@@]2(C)[C@H]([C@H](OC(=O)c3ccccc3)[C@]3(O)C[C@H](OC(=O)[C@H](O)[C@@H](NC(=O)c4ccccc4)c4ccccc4)C(C)=C1C3(C)C)[C@]1(OC(C)=O)CO[C@@H]1C[C@@H]2O
IC30 (Voltage-dependent P/Q-type calcium channel subunit alpha-1A; ion current, antagonist, automated patch clamp): > 30 µM

O=c1nc(SCc2cc(F)cc(C(F)(F)F)c2)nc(SCc2ccc3nc(Cl)ccc3c2)[nH]1
decatenated DNA (TOP2A (Homo sapiens, UniProt P11388); decatenation; 31.25 µM, replicate 2): 0.2%

N#CC(=Cc1ccc(O)c([N+](=O)[O-])c1)C(=O)NCc1ccccc1
labelling (UCHL1; covalent, intact protein LC-MS; 12.5 µM): 35.9%

O=C(NC1CCC1)c1ccc2nc(-c3cccc(NS(=O)(=O)NCCN4CCCCC4)c3)cn2c1
remaining activity (CDKL5 (Homo sapiens, UniProt O76039); enzyme activity; 10 µM): 100%

CCN1CCC[C@H]1CNC(=O)c1c(O)c(Cl)cc(Cl)c1OC
log2 fold change (G-protein coupled receptor family C group 6 member A (GPRC6A, Homo sapiens, UniProt Q5T6X5); β-arrestin recruitment, TANGO luminescence, refers to: GPRC6A; concentration not given; relative to: basal luminescence): -0.2

Nc1ncnc2c1ncn2[C@@H]1O[C@H](COP(=O)(O)CP(=O)(O)OP(=O)(O)O)[C@@H](O)[C@H]1O
calcium influx (P2X purinoceptor 1 (P2RX1, Homo sapiens, UniProt P51575, K140A); calcium influx; 10 µM; relative to: ionomycin response): 100%

Nc1ncnc2c1ncn2[C@@H]1O[C@H](COP(=O)(O)OP(=O)(O)O)[C@@H](O)[C@H]1O
Km (CKMT1A (Homo sapiens, UniProt P12532, D359N); substrate, Kinase-Glo luminescence; pH 7.0, reverse reaction, D321N mutant, together with: second substrate in excess): 9 ± 1 µM

Cc1cc(Oc2ncccc2CN2CCN(c3cccc(F)c3)CC2)ccc1-c1c(C)c(=O)[nH]c(=O)n1C
selectivity ratio (ADRA2C; binding, radioligand binding; together with: [3H]rauwolscine; relative to: Ki alpha2A over Ki alpha2C): 4

Cc1nc(CSc2nc(SCc3ccc(C(C)C)cc3)nc(=O)[nH]2)cs1
decatenated DNA (TOP2B (Homo sapiens, UniProt Q02880); decatenation; 7.8 µM, replicate 1): 93.5%

O=C1CCCc2cc(C(=O)CCl)ccc2N1
labelling (UCHL1; covalent, intact protein LC-MS; 12.5 µM): 29.8%

C[C@H](CCC(C)(C)O)[C@H]1CC[C@H]2[C@@H]3CC=C4C[C@@](C)(O)CC[C@]4(C)[C@H]3CC[C@]12C
current potentiation (Glutamate NMDA receptor; GRIN1/GRIN2A (Homo sapiens, UniProt Q05586+Q12879); ion current, positive allosteric modulator, two-electrode voltage clamp; Xenopus oocytes; 10 µM, wild type, together with: 1000 µM glutamate, glycine; relative to: absence of compound): 123 ± 3.3%

Repeated from above:
CCOc1ccc(NC(=O)C(C#N)=Cc2ccc(-c3ccc(Cl)cc3)o2)cc1
labelling (UCHL1; covalent, intact protein LC-MS; 12.5 µM): 15.7%

Nc1ccc(C(=O)O)cc1
current density (BEST1, with wild-type BEST1 (Homo sapiens, UniProt O76090, R218H); ion current, whole-cell patch clamp; HEK293 co-expressing mutant and wild-type; concentration not given, voltage 20 mV): 5.33 pA/pF and 3.24 pA/pF and 5.85 pA/pF and 2.09 pA/pF and 7.31 pA/pF and 0.94 pA/pF and 1.55 pA/pF and 3.37 pA/pF

COc1ccc2c(c1)CC(C)CC2NS(=O)(=O)c1cccc(Cl)c1O (stereo not drawn)
remaining activity (malate dehydrogenase; enzyme activity, inhibitor; 200 µM, pH 7.0, 1% DMSO, aggregation counter-screen): 100%

NCCNC(=O)c1ccc(Cl)cn1
IC30 (Voltage-dependent P/Q-type calcium channel subunit alpha-1A; ion current, antagonist, automated patch clamp): > 30 µM

CC(Cl)C(=O)N1CCN(CC(F)(F)C(F)F)CC1 (stereo not drawn)
labelling (UCHL1; covalent, intact protein LC-MS; 12.5 µM): 12.8%

Cc1cc(NC(=O)C23CC4CC(C2)CC(n2cnc([N+](=O)[O-])n2)(C4)C3)no1
inhibition (Trypanosoma cruzi; reporter translation, Renilla luciferase mRNA translation; cell-free extract; 40 µM; relative to: DMSO): -6.8%
